Results from different studies.
A part holds a random share of what one study measured.

Sample 1
Target: Histone acetyltransferase KAT6A, winged helix 2, GST fusion (KAT6A, Homo sapiens, UniProt Q92794, residues 85-181)
Method: protein binding microarray
Form: double-stranded DNA, one strand shown
Medium: in vitro
Concentration: not given
Notes: 8-mer, flanks averaged, mean of 2 arrays, mostly near background
Reference: not given
Direction: higher = stronger binding
Quantity: E-score
Target sequence (chain): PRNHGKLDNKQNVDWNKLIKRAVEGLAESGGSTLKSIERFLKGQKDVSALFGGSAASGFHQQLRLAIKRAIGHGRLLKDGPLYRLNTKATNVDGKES
TATTCAAA: 0.233
TACGCATA: -0.0899
GCGGCGCA: 0.102
CGCTGCTC: -0.0729
AGCAAAAA: 0.0276
ACAGACGG: -0.117
GCCCTAGA: -0.0581

Sample 2
Target: Prothrombin, mature alpha-thrombin (F2, Homo sapiens, UniProt P00734)
Method: aptamer microarray, sandwich
Form: DNA with 2'F-ANA
Medium: in vitro
Concentration: 200 nM
Notes: whole 15-mer aptamer, many near background
Together with: Cy3 exosite-II aptamer, 400 nM
Direction: higher = stronger binding
Quantity: mean fluorescence intensity
Oligonucleotide: GGTTGGTGTGGTTGG
2'F-ANA at 3 4 5 8 14 15: 54.7 a.u.
2'F-ANA at 2 4 6 7 8 9 11: 270 a.u.
2'F-ANA at 1 3 6 7 9 12 15: 521 a.u.
2'F-ANA at 2 3 4 8 9 14: 310 a.u.
2'F-ANA at 2 6 10 14 15: 78.9 a.u.
2'F-ANA at 1 4 8 9 10 11 12 14 15: 47.3 a.u.

Sample 3
Target: Phosphate system positive regulatory protein PHO4, full length, GST-tagged (PHO4, Saccharomyces cerevisiae, UniProt P07270, residues 1-312)
Method: competition protein-binding microarray
Form: double-stranded DNA, one strand shown
Medium: in vitro
Concentration: 2 µM
Notes: whole 60-bp probe, lowest competitor level
Together with: Cbf1 competitor, 0.05 µM
Direction: higher = stronger binding
Quantity: fluorescence intensity
Shared flanks, not repeated: … GTCTTGATTCGCTTGACGCTGCTG
Target sequence (chain): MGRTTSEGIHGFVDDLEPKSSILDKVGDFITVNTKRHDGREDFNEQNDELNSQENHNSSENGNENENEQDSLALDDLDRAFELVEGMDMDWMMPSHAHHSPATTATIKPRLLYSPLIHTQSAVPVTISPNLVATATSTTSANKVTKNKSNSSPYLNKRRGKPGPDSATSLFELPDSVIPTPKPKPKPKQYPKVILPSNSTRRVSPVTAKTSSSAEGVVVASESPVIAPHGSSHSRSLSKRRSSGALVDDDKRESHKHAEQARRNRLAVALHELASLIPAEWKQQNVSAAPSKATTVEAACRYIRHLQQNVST
CGTCCTAGTGATTGTAGAGTGGGTGCCATGAGGAAG: 6670 a.u.
CCTGTCTCCTCTCAACACGTTGCTCCTGTCAATAGT: 12800 a.u.
CATACCCAACCTTGACTTGTGGGTGAAGATATTTGT: 4750 a.u.
CTTCTGTAAATTTGACCCGTGGGTGGACGCGCCCCG: 7880 a.u.
TTCAGCTTGGCTATTTTGTGAACACTGTATAGCCAG: 2590 a.u.
GGTCATTGATGCTTGCATGTGCCGAGAAGCGGGACA: 11400 a.u.

Single results of other studies
PhoQ, residues 284 288 289 292 302 303 TGYLSA  fold induction (PhoP, residues 12 14 15 18 19 GQAIL (Escherichia coli, UniProt P23836); Sort-seq, item: YFP reporter; E. coli; PhoQ-PhoP variant library, together with: 10 µM Mg2+; reference: high Mg2+ state, higher = stronger signaling): 4.72

A few entries again (sample 1):
CGCTGCTC: -0.0729
AGCAAAAA: 0.0276
ACAGACGG: -0.117
